Measured values from different studies.
A part holds a random share of what one study measured. Positions count from the first letter of the parent shown.

Series 1 — technique: competition protein-binding microarray; molecule type: double-stranded DNA, one strand shown; matrix: in vitro; concentration: 2 µM; together with: Pho4 competitor, 0.05 µM; reading: higher = stronger binding; measurement: fluorescence intensity; shared flanks, not repeated: … GTCTTGATTCGCTTGACGCTGCTG
Target: Centromere-binding protein 1, full length, His-tagged (CBF1, Saccharomyces cerevisiae, UniProt P17106, residues 1-351)
UniProt P17106, sequence (whole entry, looked up): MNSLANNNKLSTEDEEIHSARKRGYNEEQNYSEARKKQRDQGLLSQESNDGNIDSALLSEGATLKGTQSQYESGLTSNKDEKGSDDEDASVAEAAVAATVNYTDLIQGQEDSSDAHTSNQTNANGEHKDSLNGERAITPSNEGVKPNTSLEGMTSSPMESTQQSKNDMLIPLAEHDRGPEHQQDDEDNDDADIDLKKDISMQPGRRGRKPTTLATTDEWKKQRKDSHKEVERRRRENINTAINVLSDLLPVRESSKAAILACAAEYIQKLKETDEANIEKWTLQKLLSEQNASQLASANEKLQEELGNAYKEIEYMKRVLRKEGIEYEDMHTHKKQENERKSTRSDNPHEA
Setting: whole 60-bp probe, lowest competitor level
Oligonucleotide = AAAGCGGTAATTTTACACGTGTTTTCACATATCTAT; value = 1530 a.u.
Oligonucleotide = TAGTTATCCAGATGGATCGTGGCCGCGAGTACACTA; value = 69 a.u.
Oligonucleotide = AAAAATTTTGAATGTCCCGTGACAAACAAAACCATT; value = 2070 a.u.
Oligonucleotide = CAGGATTTTCCAGTTCGCGTGGTCGTCATAGTTGGG; value = 86.1 a.u.
Oligonucleotide = GCTGCTAACGATCAACACCTGACCGAGATAACAGCA; value = 523 a.u.
Oligonucleotide = TGCGAAAAGATTTCACACGTCAGTAAATCCGCGCAA; value = 72.3 a.u.
Oligonucleotide = AAAGCGGTAATTTGCTTTGTGGGTGCAGATATCTAT; value = 82.6 a.u.
Oligonucleotide = TTTCAGGCAAGCTGGCAGGTGACGCTCCGCACCTTC; value = 84.9 a.u.
Oligonucleotide = TAGCCCCCTATCTCCCACATGTTGGCATCTGTGAGG; value = 84.1 a.u.
Oligonucleotide = CGTCCTAGTGATTTTCACGTGGCATCCATGAGGAAG; value = 640 a.u.
Oligonucleotide = AAATTACTAAGTTGTCACCACACTTACCCCGTATGA; value = 83.5 a.u.
Oligonucleotide = GGGTTATCGTAGTGAGTCGTGGCCGCAACGATAGCA; value = 53.3 a.u.
Oligonucleotide = AAAGCGGTAATTTGTCACTACACTTCACATATCTAT; value = 98.6 a.u.
Oligonucleotide = ATGGTTGTCTATGCTTCCGTGGGTATCACCAGATTA; value = 67.9 a.u.
Oligonucleotide = CTAACGAAGGTTTGTATTGTGGGTGACAAGCCAAGT; value = 70.8 a.u.

Series 2 — technique: DHFR PCA, deep sequencing; matrix: yeast; together with: (+)-ABA 0.032 µM; baseline: wild-type fitted maximum; reading: higher = stronger binding; measurement: relative binding score
Target: ABI1, truncated, D143A, DHFR fusion (Arabidopsis thaliana)
Setting: methotrexate growth selection, single substitutions
Starting sequence: PYL1, truncated, DHFR fusion (Arabidopsis thaliana); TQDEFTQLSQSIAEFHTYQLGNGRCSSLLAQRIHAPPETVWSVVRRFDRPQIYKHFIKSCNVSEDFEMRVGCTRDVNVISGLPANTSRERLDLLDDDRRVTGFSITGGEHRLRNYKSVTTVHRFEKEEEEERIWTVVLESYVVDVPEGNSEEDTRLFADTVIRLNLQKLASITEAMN; partner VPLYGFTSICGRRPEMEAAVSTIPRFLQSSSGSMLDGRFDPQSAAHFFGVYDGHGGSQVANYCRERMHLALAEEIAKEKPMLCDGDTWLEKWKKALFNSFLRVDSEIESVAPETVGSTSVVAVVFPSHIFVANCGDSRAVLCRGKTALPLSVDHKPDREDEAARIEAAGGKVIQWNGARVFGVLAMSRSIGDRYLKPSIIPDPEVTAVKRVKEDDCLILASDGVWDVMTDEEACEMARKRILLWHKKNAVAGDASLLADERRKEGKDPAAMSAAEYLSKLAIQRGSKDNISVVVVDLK
Substitution = R46F; value = -11.9%
Substitution = F56S; value = -1.87%
Substitution = T106R; value = 3.75%
Substitution = K168S; value = 13.5%
Substitution = R123I; value = 2.7%
Substitution = R24Q; value = 58%
Substitution = I162D; value = 0.835%
Substitution = I133K; value = 8.93%
Substitution = R46W; value = -3.29%
Substitution = P83A; value = 20.6%
Substitution = T160L; value = 6.13%
Substitution = V43I; value = 38.6%
Substitution = G108Q; value = -0.828%
Substitution = M176K; value = 7.02%
Substitution = P37G; value = -3.41%
Substitution = R111W; value = 1.15%

Series 3 — technique: protein binding microarray; molecule type: double-stranded DNA, one strand shown; matrix: in vitro; concentration: not given; baseline: not given; reading: higher = stronger binding; measurement: E-score
Target: Histone acetyltransferase KAT6A, both winged helices, GST fusion (KAT6A, Homo sapiens, UniProt Q92794, residues 1-181)
Setting: 8-mer, flanks averaged, mean of 2 arrays, mostly near background
Target sequence (chain): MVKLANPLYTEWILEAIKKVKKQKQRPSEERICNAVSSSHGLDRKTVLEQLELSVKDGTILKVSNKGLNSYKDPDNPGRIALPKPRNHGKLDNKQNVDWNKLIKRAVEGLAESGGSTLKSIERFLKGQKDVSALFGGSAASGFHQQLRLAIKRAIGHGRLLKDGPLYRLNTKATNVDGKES
Oligonucleotide = CCGAGTAA; value = 0.137
Oligonucleotide = TACCAGGA; value = -0.0818
Oligonucleotide = CGCTCCGC; value = 0.264
Oligonucleotide = CCTTGTCC; value = -0.13
Oligonucleotide = ATATGCGA; value = 0.154
Oligonucleotide = AACCCCGG; value = 0.0246
Oligonucleotide = AAGCATCC; value = 0.0261
Oligonucleotide = AACCACGT; value = -0.072
Oligonucleotide = CTCACACC; value = -0.0986
Oligonucleotide = TACAACCA; value = -0.127
Oligonucleotide = ATTGGCGC; value = 0.187
Oligonucleotide = ACCAGGTA; value = -0.336
Oligonucleotide = TAACTGTA; value = -0.0755
Oligonucleotide = AACGGCTG; value = 0.209
Oligonucleotide = CTACGCAC; value = 0.0603
Oligonucleotide = ACCAGTTG; value = -0.132
Oligonucleotide = GCACCGCC; value = 0.156
Oligonucleotide = AAAGAAAG; value = -0.159
Oligonucleotide = CAATACTA; value = -0.0688
Oligonucleotide = CGGGAGTA; value = 0.184
Oligonucleotide = CGGTTTGA; value = 0.145
Oligonucleotide = ACGATATC; value = -0.0406
Oligonucleotide = CAAAATAA; value = -0.178

Series 4 — target: CCNF, cyclin fold, Cln2 fusion (human); technique: yeast growth competition, sequencing; matrix: yeast; setting: weak parent motif; baseline: not given; reading: higher = stronger binding; measurement: normalised enrichment score
Starting sequence: MASTL docking peptide (human); PMIAKNLMCELDE
Substitution = PMIAKNLRCELDE [M8R]; value = -0.0552
Substitution = PMIAKNLMCEADE [L11A]; value = 0.15
Substitution = PMIAKNLICELDE [M8I]; value = -0.209
Substitution = PMIDKNLMCELDE [A4D]; value = -0.192
Substitution = PMIAKLLMCELDE [N6L]; value = -0.276
Substitution = PMIAKNLMNELDE [C9N]; value = -0.0826
Substitution = PMIAQNLMCELDE [K5Q]; value = -0.287
Substitution = PMISKNLMCELDE [A4S]; value = -0.219
Substitution = PMIAKNLACELDE [M8A]; value = -0.417
Substitution = PMIAKNLQCELDE [M8Q]; value = -0.0638
Substitution = PMIAKNKMCELDE [L7K]; value = 0.169
Substitution = PMIAKNLMCETDE [L11T]; value = 0.239
Substitution = PMIAKNLMRELDE [C9R]; value = 0.295
Substitution = PMIAKELMCELDE [N6E]; value = -0.608
Substitution = PYIAKNLMCELDE [M2Y]; value = 0.0121
Substitution = PDIAKNLMCELDE [M2D]; value = -0.0449
Substitution = PMIAMNLMCELDE [K5M]; value = -0.206
Substitution = PMIAKNLLCELDE [M8L]; value = 0.107
Substitution = PMIAKNLMCQLDE [E10Q]; value = 0.0926
Substitution = PMIAYNLMCELDE [K5Y]; value = -0.164
Substitution = PMIAKNLMCEHDE [L11H]; value = -0.24
Substitution = PMIKKNLMCELDE [A4K]; value = 0.38
Substitution = PMIAKNLMCERDE [L11R]; value = 0.0854
Substitution = PMIAKNLMCELVE [D12V]; value = 0.509
Substitution = PMIAKNLMEELDE [C9E]; value = -0.458

A few entries again (series 2):
Substitution = R46F; value = -11.9%
Substitution = F56S; value = -1.87%
Substitution = T106R; value = 3.75%
Substitution = K168S; value = 13.5%
Substitution = R123I; value = 2.7%
Substitution = R24Q; value = 58%
Substitution = I162D; value = 0.835%
Substitution = I133K; value = 8.93%
Substitution = R46W; value = -3.29%
Substitution = P83A; value = 20.6%
Substitution = T160L; value = 6.13%
Substitution = V43I; value = 38.6%
Substitution = G108Q; value = -0.828%
